Measurements pooled from the literature.
Each numbered part is a random draw from the data of one study; scales do not carry over between parts. Substitutions count along the parent as printed.

Set 1 — technique: protein binding microarray; molecule type: double-stranded DNA, one strand shown; matrix: in vitro; concentration: not given; relative to: not given; reading: higher = stronger binding; endpoint: E-score
Target: Histone acetyltransferase KAT6A, both winged helices, GST fusion (KAT6A, Homo sapiens, UniProt Q92794, residues 1-181)
Notes: 8-mer, flanks averaged, mean of 2 arrays, mostly near background
Construct (chain): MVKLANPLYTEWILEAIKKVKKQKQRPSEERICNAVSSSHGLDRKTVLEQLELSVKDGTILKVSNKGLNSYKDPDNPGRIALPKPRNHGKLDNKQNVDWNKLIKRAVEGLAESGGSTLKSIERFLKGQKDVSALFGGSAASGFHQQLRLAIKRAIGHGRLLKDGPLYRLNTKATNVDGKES
GAGAATCA: -0.0607
AATTTCCT: -0.209
AATTCTCA: -0.204
CGTAAAGC: 0.116
CGTCTACC: 0.141
CACTTGCG: 0.193
AAATGTTG: -0.0637
CGGTTCGC: 0.219
CTAAATTC: -0.147
AACCATAT: -0.143
AGAAGCGC: 0.263
CCACCAGA: -0.214
ATGAAACG: 0.0762
CAGCTCAA: -0.207
AGGAAGTC: -0.177
AGCCACCG: 0.113
CTGCAACA: 0.0868
GCCATCCA: -0.0233
CACTGCTG: -0.176
AATCTGCA: -0.168
GCCCAACC: -0.0557
GGATAAAA: -0.00216

Set 2 — technique: DHFR PCA, dose-response; matrix: yeast; notes: Hill fit, mean, not affinity; with: (+)-ABA, dose series; reading: lower = more sensitive; endpoint: ABA EC50
Target: ABI1, truncated, D143A, DHFR fusion (Arabidopsis thaliana, UniProt P49597)
Starting sequence: PYL1, truncated, DHFR fusion (Arabidopsis thaliana, UniProt Q8VZS8); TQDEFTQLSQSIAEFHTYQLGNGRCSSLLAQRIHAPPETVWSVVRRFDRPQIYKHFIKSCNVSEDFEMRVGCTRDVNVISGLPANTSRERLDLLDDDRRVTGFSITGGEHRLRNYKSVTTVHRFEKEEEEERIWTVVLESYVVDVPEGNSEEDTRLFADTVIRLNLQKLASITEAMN
N61M: 2.27 µM
H122G: 392 µM
R46W: 103 µM
R123L: 4.81 µM
D48N: 27 µM
Q10R: 1.85 µM
D75F: 1.23 µM
Q167H: 4.41 µM
M176S: 3.98 µM
P36G: 19.2 µM
S104C: 27.6 µM
K168D: 133 µM
V100I: 2.15 µM
D144P: 45.2 µM
K58A: 2.3 µM
F15H: 2.91 µM
F157I: 23.9 µM
S26E: 57.2 µM
R132N: 0.419 µM
F66A: 4.08 µM
T120W: 637 µM
K58D: 12.7 µM
E128D: 1.21 µM

Set 3 — technique: competition protein-binding microarray; molecule type: double-stranded DNA, one strand shown; matrix: in vitro; concentration: 2 µM; with: Pho4 competitor, 0.05 µM; reading: higher = stronger binding; endpoint: fluorescence intensity
Target: Centromere-binding protein 1, full length, His-tagged (CBF1, Saccharomyces cerevisiae, UniProt P17106, residues 1-351)
Chain of UniProt P17106 (whole entry, looked up): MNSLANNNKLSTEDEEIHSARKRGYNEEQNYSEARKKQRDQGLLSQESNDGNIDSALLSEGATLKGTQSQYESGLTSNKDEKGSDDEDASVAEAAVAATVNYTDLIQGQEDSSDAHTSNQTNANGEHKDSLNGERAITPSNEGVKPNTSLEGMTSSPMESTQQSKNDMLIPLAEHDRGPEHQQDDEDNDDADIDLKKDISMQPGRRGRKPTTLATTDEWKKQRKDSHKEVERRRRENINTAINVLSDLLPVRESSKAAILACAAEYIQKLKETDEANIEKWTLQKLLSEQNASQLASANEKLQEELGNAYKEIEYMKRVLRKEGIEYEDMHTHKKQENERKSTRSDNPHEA
Notes: whole 60-bp probe, lowest competitor level
GCGTTATGAGCTACCCTCGTGGCCGGAAAGATGGCGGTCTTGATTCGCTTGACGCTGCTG: 88.7 a.u.
CTTCTGTAAATTTGTCACATAACTTGACGCGCCCCGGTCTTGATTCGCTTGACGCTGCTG: 85.5 a.u.
ATCTGTGCCAACAAGTACATGACAACTGTCTCCGGTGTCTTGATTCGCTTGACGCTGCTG: 81.5 a.u.
ACTTTTTGTGGGGTAAACGTGGATTAAACGAATCTCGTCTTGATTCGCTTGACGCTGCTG: 107 a.u.
CTAACGAAGGTTTGGGATGTGGGTGACAAGCCAAGTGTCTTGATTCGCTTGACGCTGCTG: 76 a.u.
TGCGCAACAACTTGTCACGGGACTTTATGTCTAGAAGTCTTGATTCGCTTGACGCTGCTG: 1460 a.u.
CGGGGTTAAGTTTGTGGTGTGGGTGGCTTGCAGCAGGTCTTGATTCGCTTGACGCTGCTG: 68.8 a.u.
CAGAATTTAGGCCTACACGATGGATGAAAAGGTGTAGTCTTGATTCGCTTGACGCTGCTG: 65.9 a.u.
GCTAATGTAATATAATCCGTGATGGTTTAATGGTCAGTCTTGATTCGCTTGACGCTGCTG: 113 a.u.
CGTCCTAGTGATTGTCACCAGACTTCCATGAGGAAGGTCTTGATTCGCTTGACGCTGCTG: 95 a.u.
CTTTCAAATGTGGGTGACGTGCTAACTTGGGGCTTGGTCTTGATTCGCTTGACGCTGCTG: 76.4 a.u.
TAGGCCGTACCGGTTCTCGTGGTGATGTTACCCAAGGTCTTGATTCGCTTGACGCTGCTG: 75.2 a.u.
CATACCCAACCTTGCCCTGTGGGTGAAGATATTTGTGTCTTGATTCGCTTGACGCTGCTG: 60.9 a.u.
AAATTACTAAGTTGTTGCGTGGGTGACGCCGTATGAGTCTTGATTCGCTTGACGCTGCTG: 77.5 a.u.
GATTTACAGGCCTGGCACGGCGATTGGCCATTACCTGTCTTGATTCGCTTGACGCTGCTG: 51.4 a.u.
AAGCCTTTGGAACGCCATGTGTAAGGTGCAATGGACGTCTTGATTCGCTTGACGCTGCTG: 89.3 a.u.
TGTAGCGCCAACCAACACGTGCAAATTTCCATCATCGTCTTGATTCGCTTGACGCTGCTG: 1380 a.u.
GGGATGAAAGTTCTGCGTGTGTTGGTTACTTAGGTTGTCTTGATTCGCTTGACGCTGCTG: 104 a.u.

Set 4 — target: UBE2L3 UBC core domain (UniProt P68036); technique: yeast two-hybrid; matrix: yeast; notes: mostly zero background; relative to: not given; reading: higher = stronger interaction; endpoint: lacZ reporter activity
Chain of UniProt P68036 (whole entry, looked up): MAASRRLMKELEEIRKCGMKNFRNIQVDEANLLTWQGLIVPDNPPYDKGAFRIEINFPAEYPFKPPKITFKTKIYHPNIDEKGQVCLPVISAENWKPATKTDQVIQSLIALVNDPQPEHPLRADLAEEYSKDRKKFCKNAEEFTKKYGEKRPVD
B1: RNF103 RING domain (UniProt O00237); chain WPADMLHCTECVVCLENFENGCLLMGLPCGHVFHQNCIVMWLAGGRHCCPVCRWPSYKKKQPY
B2: CNOT4 RING domain (UniProt O95628); chain MSRSPDAKEDPVECPLCMEPLEIDDINFFPCTCGYQICRFCWHRIRTDENGLCPACRKPYPED
B3: RNF186 RING domain (UniProt Q9NXI6); chain HSGSTECDLECLVCREPYSCPRLPKLLACQHAFCAICLKLLLCVQDNTWSITCPLCRKVTAVPGGLI
B4: ZMYND11 RING domain (UniProt Q15326); chain DEIDWETENHDWYCFECHLPGEVLICDLCFRVYHSKCLSDEFRLRDSSSPWQCPVCRSIKKKNTNKQEM
B5: MKRN3 RING domain (UniProt Q13064); chain FAVQRGMDKVCGICMEVVYEKANPNDRRFGILSNCNHSFCIRCIRRWRSARQFENRIVKSCPQCRVTSELVIPSE
B6: RNF6 RING domain (UniProt Q9Y252); chain NSIDSELGKICSVCISDYVTGNKLRQLPCMHEFHIHCIDRWLSENCTCPICRQPVLGSNIAN
B7: RNF182 RING domain (UniProt Q8N6D2); chain AESQASDELECKICYNRYNLKQRKPKVLECCHRVCAKCLYKIIDFGDSPQGVIVCPFCRFETCLPDDEV
B8: TRIM11 RING domain (UniProt Q96F44); chain LSTNLQEEATCAICLDYFTDPVMTDCGHNFCRECIRRCWGQPEGPYACPECRELSPQRNLRP
B1 (RNF103 RING domain): 0
B2 (CNOT4 RING domain): 0
B3 (RNF186 RING domain): 0
B4 (ZMYND11 RING domain): 0
B5 (MKRN3 RING domain): 0
B6 (RNF6 RING domain): 0
B7 (RNF182 RING domain): 0
DDVLTKDAGECVICLEELLQGDTIARLPCLCIYHKSCIDSWFEVNRSCPEHPAD (ZNRF1 RING domain (UniProt Q8ND25)): 0
LVKDFNPYITCYICKGYLIKPTTVTECLHTFCKTCIVQHFEDSNDCPRCGNQVHETNPLE (PCGF5 RING domain (UniProt Q86SE9)): 0
B8 (TRIM11 RING domain): 0
FAEQPSVKLCCQLCCSVFKDPVITTCGHTFCRRCALKSEKCPVDNVKLTVVVNNI (TRAF7 RING domain (UniProt Q6Q0C0)): 0

Set 5 — target: CCNF, cyclin fold, Cln2 fusion (human); technique: yeast growth competition, sequencing; matrix: yeast; notes: weak parent motif; relative to: not given; reading: higher = stronger binding; endpoint: normalised enrichment score
Starting sequence: MASTL docking peptide (human); PMIAKNLMCELDE
K5A: -0.433
C9H: -0.379
L11P: -0.00158
M2A: 0.173
L11C: -0.421
E10L: 0.978
A4H: -0.226
I3P: -0.3
D12M: 0.134
L7P: -0.32
M8S: -0.33
C9Y: -0.193
N6F: -0.382
E10Y: 0.933
D12P: -0.397
A4V: -0.105
A4W: 0.506
E10W: 0.213
K5P: -0.335
M8V: -0.11
M8F: 1.34
M2P: 0.348
N6Y: -0.272

Set 6 — target: JUN, bZIP domain (human); technique: DHFR protein complementation; matrix: yeast; relative to: wild-type JUN-FOS pair; reading: higher = stronger binding; endpoint: binding fitness
Notes: single substitutions, most at no-binding floor
Starting sequence: JUN, bZIP domain (human); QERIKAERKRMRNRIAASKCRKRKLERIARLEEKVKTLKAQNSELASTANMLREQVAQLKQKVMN; partner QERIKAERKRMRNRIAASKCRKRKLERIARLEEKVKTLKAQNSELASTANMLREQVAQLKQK
R53F: -0.983 natural log
T48I: -0.253 natural log
R53Q: -0.499 natural log
L59W: -0.751 natural log
N42I: -1.16 natural log
A46L: -0.145 natural log
S43N: -0.195 natural log
A49Q: -0.778 natural log
L59A: -0.758 natural log
A29H: -0.242 natural log
A29D: -0.552 natural log
T37Q: 0.0504 natural log
A57D: -0.166 natural log
K36I: -0.467 natural log
K39N: -0.391 natural log
A57H: -0.296 natural log
K36T: -0.417 natural log
Q55E: -0.164 natural log
A57G: -0.503 natural log

Repeated from above (set 6):
R53Q: -0.499 natural log
L59W: -0.751 natural log
N42I: -1.16 natural log
A46L: -0.145 natural log
S43N: -0.195 natural log
A49Q: -0.778 natural log
L59A: -0.758 natural log
A29H: -0.242 natural log
A29D: -0.552 natural log
T37Q: 0.0504 natural log
A57D: -0.166 natural log
K36I: -0.467 natural log
K39N: -0.391 natural log
A57H: -0.296 natural log
K36T: -0.417 natural log
Q55E: -0.164 natural log
A57G: -0.503 natural log
